# Experimental data pooled from the literature.
# Numbered parts are unrelated; each lists some results of a single study.

# Set 1 — method: protein-binding microarray; form: double-stranded DNA, one strand shown; sample: in vitro; tested at: 940 nM top; setting: 60-bp whole probe; with: salmon DNA 0.4 mg/ml; reference: random background probes; reading: higher = stronger binding; all sequences stand within: GCCTAGCAC … GTCTTGATTCGCTTGACGCTGCTG
# Target: Interferon regulatory factor 5, full length, phosphomimetic (IRF5, Homo sapiens, UniProt Q13568-2, residues 1-514, S451D/S453D/S456D/S462D)
Sequence,fitted relative affinity [z-score]
TCACATTTTGGTTTTCTACTGTGCTAG,1.41
TGTTTTTTGGTTTCTGGTTTGTGCTAG,4.68
TTAGCTTTCGGGTATCGGTTAGTGCTA,5.6
GCCGATTTCGGGACTGGAGACGTGCTA,0.103
TTACGACTGGGTCTCGGTTAGTGCTAG,1.87
GACGGACTGGACTATCTGGACGTGCTA,-0.398
GACGGTTCCCATTTCCTGACGTGCTAG,0.755
TCAAGTCCCGAGAATGGTACTGTGCTA,-0.113
CTCCCTTTCAGTTTTCCTCTGTGCTAG,2.43
TTAGGTATCCTTGTCCTTTAGTGCTAG,0.205
TTGGGTCTCCTTATCCTTTAGTGCTAG,0.297
TTAGGTTCCGGTTTCGTTTAGTGCTAG,7.12
TCTCTTCTGCTTCCTCAGGACGTGCTA,2.59
GACGGTATCGACACTTGGGACGTGCTA,3.04
TTAGATTTCAGTATCGATTCGTGCTAG,5.88
TTAGGTTTCCTTATTCTTTAGTGCTAG,1.9
TCACTTCTGCTTCCTCAGACTGTGCTA,0.729
TTAGGTTTCAGGTATCGGTTAGTGCTA,6.71
GACGGTTTCCTTATCCAGACGTGCTAG,1.71
GACGATTTCGGTACTGGAGACGTGCTA,1.43
TTAGCTTTCGGTATCGGTTAGTGCTAG,9.13
TCATTTTTTTTCCTAATACTGTGCTAG,1.59
GGCAAAAACATGAACAGACAGTGCTAG,-0.63
TCACTTTTTTGTTCCACACTGTGCTAG,1.43
TTAGGTTGCGACTTTCGGTTAGTGCTA,3.48

# Set 2 — method: universal PBM; form: double-stranded DNA, one strand shown; sample: in vitro; tested at: 600 nM; reading: higher = stronger binding
# Target: Sal-like protein 4, full length isoform A (SALL4, Homo sapiens, UniProt Q9UJQ4, residues 1-1053)
# Sequence of UniProt Q9UJQ4 (whole entry, looked up): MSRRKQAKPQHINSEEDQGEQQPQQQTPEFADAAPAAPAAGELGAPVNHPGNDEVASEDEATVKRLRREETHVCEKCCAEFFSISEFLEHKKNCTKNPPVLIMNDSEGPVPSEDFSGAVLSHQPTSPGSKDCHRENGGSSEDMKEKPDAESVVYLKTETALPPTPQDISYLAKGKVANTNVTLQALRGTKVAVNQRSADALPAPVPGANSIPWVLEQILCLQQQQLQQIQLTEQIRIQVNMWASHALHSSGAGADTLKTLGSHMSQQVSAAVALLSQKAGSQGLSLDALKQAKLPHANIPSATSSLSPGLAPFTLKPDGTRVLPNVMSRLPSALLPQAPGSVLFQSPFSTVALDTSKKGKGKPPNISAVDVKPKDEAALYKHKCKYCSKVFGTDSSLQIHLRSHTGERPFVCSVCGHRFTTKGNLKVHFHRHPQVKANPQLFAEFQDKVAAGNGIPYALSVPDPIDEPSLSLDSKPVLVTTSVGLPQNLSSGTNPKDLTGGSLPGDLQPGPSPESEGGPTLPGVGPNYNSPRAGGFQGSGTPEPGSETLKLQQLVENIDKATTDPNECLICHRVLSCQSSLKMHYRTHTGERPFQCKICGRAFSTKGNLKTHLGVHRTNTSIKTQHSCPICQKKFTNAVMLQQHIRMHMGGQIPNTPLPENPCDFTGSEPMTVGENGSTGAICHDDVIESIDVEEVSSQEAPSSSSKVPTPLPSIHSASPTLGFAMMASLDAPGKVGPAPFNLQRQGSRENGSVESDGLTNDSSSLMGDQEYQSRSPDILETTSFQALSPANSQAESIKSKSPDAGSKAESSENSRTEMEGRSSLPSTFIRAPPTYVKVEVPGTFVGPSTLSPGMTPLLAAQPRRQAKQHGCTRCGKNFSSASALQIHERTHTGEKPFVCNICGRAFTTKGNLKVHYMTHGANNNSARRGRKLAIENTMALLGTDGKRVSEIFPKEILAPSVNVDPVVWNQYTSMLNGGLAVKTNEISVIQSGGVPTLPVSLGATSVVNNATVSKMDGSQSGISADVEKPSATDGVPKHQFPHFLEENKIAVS
# Setting: 8-mer, flanks averaged, mean of replicates
Sequence,E-score
ATTAGAAA,0.239
AGCGCCTA,-0.0846
CATCTGTC,-0.105
GGAAAGAC,-0.157
CACCGGAA,0.0573
CTTCGAGA,-0.0863
ATGGAACA,-0.000525
AATCTTCC,-0.106
AATCCCAA,0.108
AAACGTGA,0.184
GTTCGTGA,-0.235
CCCTTTTC,-0.0959
GGTCGCGA,-0.211
AATCTGTA,0.144
CGAGGTGC,-0.147
CTACGCCC,-0.226
ATACTATC,0.254
ACCCGCAA,-0.192

# Set 3 — method: protein binding microarray; form: double-stranded DNA, one strand shown; sample: in vitro; tested at: not given; reference: not given; reading: higher = stronger binding
# Target: Histone acetyltransferase KAT6A, winged helix 1, GST fusion (KAT6A, Homo sapiens, UniProt Q92794, residues 1-85)
# Setting: 8-mer, flanks averaged, mean of 2 arrays, mostly near background
# Residues (chain): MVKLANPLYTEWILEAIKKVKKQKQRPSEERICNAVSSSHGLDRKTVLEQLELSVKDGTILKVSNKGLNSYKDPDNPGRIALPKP
Sequence,E-score
AGGCTCGC,0.129
ACAAGTCA,-0.0199
AATCCGGG,0.118
CTTATAAA,-0.101
CAATTGGA,-0.121
CCATCCGC,0.116
AAGCTGGG,-0.175
ACTCCGAC,0.111
CGCCGGAC,0.434
CCTGGTTA,-0.269
AATAAATA,-0.113
GAAACTCA,-0.13
ATCGAGGC,-0.0324
ACCTCCGC,0.186
CGGGCAAG,0.168
CACTTCAC,-0.00291
GGTACGAA,-0.0226
GGCACGCA,0.118
ATCCGAGG,-0.016
CGAGCCGC,0.385
AGTGCGGG,0.163
GCGGAAAC,0.223
AACAGCGC,0.33
CCTAGGCC,-0.1

# Set 4 — method: RNA Bind-n-Seq; form: RNA; sample: in vitro; tested at: 365 nM; reference: no-protein control; reading: higher = stronger binding
# Target: RNA binding protein fox-1 homolog 2, RRM domain, GST-SBP tag (RBFOX2, Homo sapiens, UniProt O43251-10, residues 100-194)
# Setting: natural RNA segment, single round, ends assumed
# Target sequence (chain): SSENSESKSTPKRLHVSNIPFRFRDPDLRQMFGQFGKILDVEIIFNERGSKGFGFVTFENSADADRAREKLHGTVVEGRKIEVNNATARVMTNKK
Sequence,RBNS enrichment (R)
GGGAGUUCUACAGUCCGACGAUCUUGCCAGGUAGAUAAAACUGACAUAGAGAAAAGGCUGGAGAGAGAUUCUGUUGCAUAGACUAGUCCUAUGGAAAAAACCAAGCUUCGUUAGAAUGUCUGCCUUACUGGUUUGGAAUUCUCGGGUGCCAA,1.37
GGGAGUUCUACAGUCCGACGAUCAGUAUGUAAAUAAUUGACAUUGGUGUUAACACGACUGUCGGGGAUUCACUGAAAUCCACAUGAUUCAGUUCUAGCUCUGGAUUACCUCAGUUGACCUUUGUGGAGGUUUUUGGAAUUCUCGGGUGCCAA,0.538
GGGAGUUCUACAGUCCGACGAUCUGUGUUUUAUAUGCUCAUUUAAAAUGACUUUUCAGUGUUCUUCAGUUUAAAAUCUGUUGUUUGACUUUAAAAACAGCCUUUCACAACUUGUCCCAGGAGAACUGACCACAUGGAAUUCUCGGGUGCCAA,0.246
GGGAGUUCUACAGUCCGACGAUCAAAGCAAGUUAGAACGGGCUGGAUAGCCAAAGAGGCAGCCAUUCGGACCUAGGAAGUUGGGGUCUGUAGUAUGCCUGGAUUUUCUAUUAUUCAUGAGAUUUGUACAAACCUGGAAUUCUCGGGUGCCAA,1.22
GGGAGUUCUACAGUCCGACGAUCUUUGUGAAACAGACUUGUAUAUUCUAUUUUACAACUACAAAUGCCUCCAAAGUAUUGUACAAAUAAGUGUGCAGUAUCUGUGAACUGAAUUCACCACAGACUUUAGCUUUUGGAAUUCUCGGGUGCCAA,0.306
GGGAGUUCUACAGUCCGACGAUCUUAAUUUUGUUAAUCCUGUCUGGGACAUUUAGGUAACAUCUAAAGCAUUAUUGCUUUAGAAUGUUCAAAUAAAAUUUCCUGACCAAAUUGUUUUGUGACAGUAGAUGUGUUGGAAUUCUCGGGUGCCAA,0.387
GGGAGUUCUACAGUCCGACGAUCAGCUAUUGUGGGUGACAGGAGCAGUGUUUUCCUGCUGGACCCGCAAGCCACCAGCUAUUUCCUGGUGACACAAGCUCUUCUCAGGCGGGGCUGCCUGCAGGCUCCCGUUUUGGAAUUCUCGGGUGCCAA,0.344
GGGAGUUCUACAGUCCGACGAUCCAGACAAGGAACUUGCUGAAAGGCCAACCAUUUCAGGAUCAGUCAAAGGCAGCAAGCAGAUAGACUCAAGGUGUGUGAAAGAUGUUAUACACCAGGAGCUGCCACUGCAUUGGAAUUCUCGGGUGCCAA,0.198
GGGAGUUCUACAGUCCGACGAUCGAGCUGUGGCUUACUUGCUGUCUUCACCAGGUUCAAGCUCCGUGGGCCACACUGCUGCUGUGCCAAGAAGGUGUACAGCCUCCCCAGGAUGGGGCCUCAUACAACCCUUCUGGAAUUCUCGGGUGCCAA,0.339
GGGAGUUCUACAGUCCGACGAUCCUGCACAUGGAACUGCAGGGCAGGCUGGCGGGGGGCCUUCAGAUCUCAGAUGAGACUGCACCCCUUCGACCACCCUACUGGGCACCUGCCUCCAGCCCCUGAGAACUCCAUGGAAUUCUCGGGUGCCAA,0.254
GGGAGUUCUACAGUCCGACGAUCCUGCAUCCUCGUGGCAAAAUUCUGUAUUCUUAGUGAUUGUUACAAACCCCUUUAUUGCUGUCUGAGAAAGUGAAAGAUUGUGUAUUUCUAUUAAAACAUUUACAAUCAAAUGGAAUUCUCGGGUGCCAA,1.15
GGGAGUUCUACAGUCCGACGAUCAGUAUUAUAGAAAUUUAUCCUAGCAAGACUUUACAAGAUAGGAUCAAAUUCUAAUGGAAUUGAGCCGGUUUCUUAUCCUAAAUGUUUCCUCCCUUUUUACAAUCUCUGUCUGGAAUUCUCGGGUGCCAA,0.817

# Set 5 — method: RNA Bind-n-Seq; form: RNA; sample: in vitro; tested at: 100 nM; reference: input RNA pool; reading: higher = stronger binding
# Target: RING finger protein unkempt homolog, zinc fingers 1-6, SBP tag (UNK, Homo sapiens, UniProt Q9C0B0, residues 30-357)
# Sequence of UniProt Q9C0B0 (30-357, looked up): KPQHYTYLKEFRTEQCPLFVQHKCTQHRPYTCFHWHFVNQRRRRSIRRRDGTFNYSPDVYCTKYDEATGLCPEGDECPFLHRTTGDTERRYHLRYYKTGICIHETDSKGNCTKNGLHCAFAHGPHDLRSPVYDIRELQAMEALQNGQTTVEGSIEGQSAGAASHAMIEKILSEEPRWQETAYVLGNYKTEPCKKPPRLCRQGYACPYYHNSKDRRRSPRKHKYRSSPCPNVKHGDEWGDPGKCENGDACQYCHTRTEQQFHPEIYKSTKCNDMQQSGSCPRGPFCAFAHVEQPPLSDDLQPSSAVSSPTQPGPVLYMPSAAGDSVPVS
# Setting: RNA with constant flanks, vertebrate orthologous sites, ends assumed
Sequence,bound/input enrichment
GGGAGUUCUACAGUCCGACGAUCUGUGUUUUGGUACCAUUCAAUGUACCAAUACUCAUCCUUUUUCAUUAUACCAACUAUCGCUAGAAGUAGGAGUUUAAUAUUUUUAAAGAUUUUACAUUGCUGUAUAUUCAAAAUUUUAAACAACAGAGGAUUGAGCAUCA,0.58 ratio
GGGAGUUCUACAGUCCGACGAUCAUCCCUCAGUGACAGUAUGCCUUCUGUAGCAGAUUCCCACUCUAGUCAUUUUUCUGAAUUUAGUUGUUCUGACCUAGAAAGCAUGAAAACUUCUUGUAGUCAUGGUUCCACUGAUUAUCACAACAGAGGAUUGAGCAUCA,2.8 ratio
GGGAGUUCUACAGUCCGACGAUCUGGGUUACUCCUAUUAUUAUCAAGUAGCUGGAAUUGUGAAGGUCGGAGUAGUUAGAUCUUUAGCUUUUAUUCCUUAUUUUUUUUGUAUUACUAUCCAUGUGUAUAAAUUAUUGAUCAUGUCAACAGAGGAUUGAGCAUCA,3.63 ratio
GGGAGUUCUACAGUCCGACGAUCGAAUGUUUUCAAACUGGGUUUUUUUUGCCUGUAAGAAAACAGUGUACCCGAGCACACAUAUAGAGCUUUUUAAUAGCACUAACCAAUGCCUUUUUAGAUGUAUUUUUGAUGUAUAUAUCUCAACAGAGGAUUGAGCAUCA,0.877 ratio
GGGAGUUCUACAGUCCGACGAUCAAAACCCCGAUUUUAGAUGUGAUAUUUAGGCUUUCAUUCCAGUUUGUUUUGUUUUUUGUUUAGAUACCAAUCUUUUAAAUUCUUGCAUUUUAGUAAGAAAGCUACCUUUUUAUGGAUGUUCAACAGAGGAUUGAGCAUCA,1.18 ratio
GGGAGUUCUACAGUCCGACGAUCUUACAGUCAUUGAUGGACUCUAUUUUUUUAUUAUUACUUGGACCUUGGUCGUUUUUAUACUAGCAACGAAAAAAUGUCUUGUUUUAAUUUGUUUUUUGGGGGUAUGGGGUGGGAAGUGUCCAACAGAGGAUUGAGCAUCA,0.785 ratio
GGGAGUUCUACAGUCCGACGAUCCCCCGAUUUUAGAUGUGAUAUCUAGGCUCUCAUUCUAGUUUGUUUUUGUCUUUUCUUGUUUAGAUAUCAAUCUUUUAAAUUCUUGCAUUUUAGUAAGAAAGCUACCUUUUUAUGGAUGUUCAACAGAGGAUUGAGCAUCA,1.85 ratio
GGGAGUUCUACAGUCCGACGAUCAAUAGUUUUAAGCUUGUUUGCACAGCUUUUUUUAUCCAUGAGAAAUGGAAUCCAUUUUGCCUUAGGUCUUUUUAAAUAAUGUAUUCUUAUGUUUGGGCUGGCUCUAUGCUUGAAAACCAGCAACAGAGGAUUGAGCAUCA,1.57 ratio
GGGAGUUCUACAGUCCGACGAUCGGCCAAACUUAUUUUUUGUUGUUUGUUUUUAACUUUUACUUUACAAAAUUUUUUUGUAGUUCCCUUACCUUGCCACACCAUUUUUAUGUCUCCUUCACUGAAGGGCUAGAGUUUUAACUUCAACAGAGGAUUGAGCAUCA,0.367 ratio
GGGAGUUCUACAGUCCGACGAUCUGCAGGCACAACUGACUAGUUCACAGCAUUCCUUACAUAGUUAUUUAUCAAAUACAAGUGGAGUUAAUUUUCAGGAUACAUCCAGACAGUCAGCAUUGUCCUGCAGUCCAGUUGGAGAUGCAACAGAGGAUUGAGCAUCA,0.948 ratio
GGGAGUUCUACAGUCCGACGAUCAGUAGUUUUAAGCUUGUUUGCACAGUUCUUUUUUUCCAUUGGAAAUGGAAUUCAUUGCCUUAGGUCUUUUUAAAUAGUGUUAUAUUAUCGUUGGGGCUGGCUCUAUGCUUGAAAACCAGUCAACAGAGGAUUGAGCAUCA,4.09 ratio

# Repeated from above (set 2):
Sequence,E-score
AATCCCAA,0.108
ACCCGCAA,-0.192
CGAGGTGC,-0.147
ATTAGAAA,0.239
ATACTATC,0.254
CATCTGTC,-0.105
AAACGTGA,0.184
CCCTTTTC,-0.0959
GGAAAGAC,-0.157
ATGGAACA,-0.000525
AATCTTCC,-0.106
AATCTGTA,0.144
AGCGCCTA,-0.0846
GTTCGTGA,-0.235
